# Measurements gathered from unrelated publications.
# Each numbered part is a random draw from the data of one study; scales do not carry over between parts. Several values in a cell are separate wells, animals, samples, runs or records. Positions count from the first letter of the parent shown.
# Chain of UniProt P62344 (whole entry, looked up): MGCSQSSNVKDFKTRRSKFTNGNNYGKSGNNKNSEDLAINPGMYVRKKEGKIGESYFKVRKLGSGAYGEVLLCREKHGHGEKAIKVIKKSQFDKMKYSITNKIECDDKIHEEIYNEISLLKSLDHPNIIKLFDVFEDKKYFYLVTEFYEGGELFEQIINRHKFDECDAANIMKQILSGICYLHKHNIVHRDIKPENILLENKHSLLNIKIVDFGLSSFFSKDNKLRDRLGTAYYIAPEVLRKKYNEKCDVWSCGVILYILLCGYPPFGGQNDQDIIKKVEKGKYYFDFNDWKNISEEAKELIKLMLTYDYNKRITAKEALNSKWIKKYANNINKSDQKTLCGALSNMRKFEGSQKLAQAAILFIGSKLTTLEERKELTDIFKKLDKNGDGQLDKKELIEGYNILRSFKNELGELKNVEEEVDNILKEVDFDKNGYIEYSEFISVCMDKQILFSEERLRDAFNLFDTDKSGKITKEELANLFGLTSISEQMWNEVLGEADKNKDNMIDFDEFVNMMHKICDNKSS
# Chain of UniProt P28221 (whole entry, looked up): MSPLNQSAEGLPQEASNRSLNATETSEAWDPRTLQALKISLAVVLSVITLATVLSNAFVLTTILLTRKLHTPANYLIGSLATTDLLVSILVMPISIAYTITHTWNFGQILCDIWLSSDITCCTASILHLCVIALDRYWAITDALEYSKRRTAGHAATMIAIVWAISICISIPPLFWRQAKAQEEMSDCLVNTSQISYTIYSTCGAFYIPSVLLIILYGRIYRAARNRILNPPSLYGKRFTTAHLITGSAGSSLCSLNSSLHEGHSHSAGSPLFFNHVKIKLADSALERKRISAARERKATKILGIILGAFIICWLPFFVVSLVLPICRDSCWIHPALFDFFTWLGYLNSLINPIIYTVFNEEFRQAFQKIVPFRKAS
# Chain of UniProt Q8TDX7 (whole entry, looked up): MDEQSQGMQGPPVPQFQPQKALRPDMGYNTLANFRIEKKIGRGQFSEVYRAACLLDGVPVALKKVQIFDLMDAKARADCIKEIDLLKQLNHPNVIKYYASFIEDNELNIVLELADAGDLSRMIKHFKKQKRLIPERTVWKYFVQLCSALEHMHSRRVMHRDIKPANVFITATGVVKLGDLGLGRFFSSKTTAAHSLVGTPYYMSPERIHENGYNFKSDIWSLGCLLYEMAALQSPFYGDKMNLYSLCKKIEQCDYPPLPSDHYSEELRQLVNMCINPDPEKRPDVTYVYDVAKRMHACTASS
# Chain of UniProt P61075 (whole entry, looked up): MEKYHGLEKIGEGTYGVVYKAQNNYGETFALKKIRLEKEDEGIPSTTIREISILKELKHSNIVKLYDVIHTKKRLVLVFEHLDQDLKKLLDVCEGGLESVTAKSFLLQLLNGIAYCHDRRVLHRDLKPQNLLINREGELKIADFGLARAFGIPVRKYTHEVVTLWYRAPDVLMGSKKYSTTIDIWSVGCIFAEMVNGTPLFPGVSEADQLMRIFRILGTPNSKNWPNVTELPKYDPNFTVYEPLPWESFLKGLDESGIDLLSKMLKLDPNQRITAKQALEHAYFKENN

# Set 1
# Target: CCNF, cyclin fold, Cln2 fusion (human)
# Technique: yeast growth competition, sequencing
# Sample: yeast
# Notes: strong parent motif
# Reference: not given
# Reading: higher = stronger binding
# Parent: viral docking peptide; CKVKRKLFGSENI; partner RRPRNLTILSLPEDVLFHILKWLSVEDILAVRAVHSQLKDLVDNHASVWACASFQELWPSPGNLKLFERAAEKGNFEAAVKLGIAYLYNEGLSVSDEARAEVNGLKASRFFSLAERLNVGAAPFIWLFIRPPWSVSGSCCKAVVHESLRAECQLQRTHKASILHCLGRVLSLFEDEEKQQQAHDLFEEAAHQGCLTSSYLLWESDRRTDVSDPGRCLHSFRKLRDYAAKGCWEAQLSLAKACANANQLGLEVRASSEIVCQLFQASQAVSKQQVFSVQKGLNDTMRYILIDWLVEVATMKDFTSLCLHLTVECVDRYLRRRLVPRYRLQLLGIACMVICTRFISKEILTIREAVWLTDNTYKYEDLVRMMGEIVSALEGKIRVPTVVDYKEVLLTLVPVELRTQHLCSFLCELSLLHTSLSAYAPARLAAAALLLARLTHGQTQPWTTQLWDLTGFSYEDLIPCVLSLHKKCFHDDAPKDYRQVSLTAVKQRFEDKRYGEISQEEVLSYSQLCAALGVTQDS
Variant,normalised enrichment score
K4A,7.81
G9A,6.98
V3A,7.21
C1A,7.98
R5K F8L,1.22
K6A,7.86
E11A,7.79
F8L,1.85

# Set 2
# Cell line: HEK-293T-ACE2-TMPRSS2
# Technique: cell count
# Tested at: 10 µM
Structure (SMILES),viability [%]
COc1ccc(CCNC(=O)Cn2ncc(Br)c(Br)c2=O)cc1,66
Cc1ccc(-c2cc(O)c3c(c2)CN(C(=O)Nc2ccccc2)CCO3)s1,102
O[C@H]1[C@H]2c3cc4c(cc3CN3CCC(=C[C@@H]1O)[C@H]23)OCO4,126
Cc1cc(N2CCCC(CO)C2)nc(C)n1 (stereo not shown),65
CCc1nc(-c2ccc(C(=O)NC3CCCCCC3)cc2)cs1,89
Cc1ccc(C(=O)N2CCC3(CCCN(Cc4ccc(F)cc4)C3)C2)cn1 (stereo not shown),114
O=C(CCc1ccco1)NCc1cccnc1-n1cnc2ccccc21,106
O=c1c(Cl)c(Cl)cnn1-c1ccccc1,84
Cn1ccnc1SCc1cn2cc(Cl)ccc2n1,88
O=c1c(Cl)c(Cl)cnn1Cc1ccccc1Br,220
Nc1ccc(OC2=C(Cl)C(=O)c3ccccc3C2=O)cc1,88
CC(Cn1cncn1)NC(=O)c1cc(COc2cccc(F)c2)[nH]n1 (stereo not shown),112
COc1ccccc1C(=O)c1sc(Nc2ccc(C(C)C)cc2)nc1N,74
Cc1cccc(-c2[nH]c(C(C)(C)C)nc2-c2ccc3c(c2)OCO3)n1,112
COc1cc(NC(=O)CN2C[C@@H](C)O[C@@H](C)C2)ccc1NC(=O)CC(C)C,70
Cc1nc(C(=O)N2CCC3(CCCN(CC4CCC4)C3=O)C2)cs1 (stereo not shown),113
Cc1cc(C)cc(Oc2c(C)oc3c(CN4CCCCCC4)c(O)ccc3c2=O)c1,71
CC(C)CS(=O)(=O)c1oc(-c2ccc(F)cc2)nc1S(=O)(=O)c1ccc(F)cc1,77
Cn1c(CC2CCNCC2)nnc1SCc1cc(F)ccc1Cl,87
O=c1c(Cl)c(Cl)cnn1Cc1ccc(F)cc1Br,149
CCOC(=O)C1(Cc2cccc(F)c2)CCN(C(=O)C2CCC2)CC1,111
O=C(CC1CC1)N1CC(F)(F)C[C@H]1c1nc(-c2cccnc2)no1,96
O=C(NCCc1ccncc1)C(F)(F)F,77
Cc1cccc(NC(=O)CS(=O)(=O)c2nc(-c3ccccc3)cn2-c2ccc(Cl)cc2)c1C,114
CCS(=O)(=O)c1ncc(Cl)c(C(=O)Nc2nc3ccc(F)cc3s2)n1,82

# Set 3
# Organism: Vesicular stomatitis virus
# Read-out: pseudovirus infection
# Tested at: concentration not given
# Notes: VSV-G control pseudotype
# Reference: vehicle
SMILES,GFP-positive cells [%]
COC(=O)N[C@H](C(=O)N[C@@H](Cc1ccccc1)[C@@H](O)CN(Cc1ccc(-c2ccccn2)cc1)NC(=O)[C@@H](NC(=O)OC)C(C)(C)C)C(C)(C)C.O=S(=O)(O)O,99.8
C[C@@H]1CCO[C@H]2Cn3cc(C(=O)NCc4ccc(F)cc4F)c(=O)c([O-])c3C(=O)N12.[Na+],98.9
CC[C@H](C)[C@H]1O[C@]2(CC[C@@H]1C)C[C@@H]1C[C@@H](C/C=C(\C)[C@@H](O[C@H]3C[C@H](OC)[C@@H](O[C@H]4C[C@H](OC)[C@@H](O)[C@H](C)O4)[C@H](C)O3)[C@@H](C)/C=C/C=C3\CO[C@@H]4[C@H](O)C(C)=C[C@@H](C(=O)O1)[C@]34O)O2,151
C[C@@H](O)[C@H]1C(=O)N2C(C(=O)O)=C(S[C@@H]3CN[C@H](CNS(N)(=O)=O)C3)[C@H](C)[C@H]12.O,105
Cc1ccc(C(=O)Nc2ccc(CN3CCN(C)CC3)c(C(F)(F)F)c2)cc1C#Cc1cnc2cccnn12,76.3
CNC[C@H](O)[C@@H](O)[C@H](O)[C@H](O)CO.CNC[C@H](O)[C@@H](O)[C@H](O)[C@H](O)CO.C[C@@H](O[C@H]1OCCN(Cc2nn(P(=O)(O)O)c(=O)[nH]2)[C@H]1c1ccc(F)cc1)c1cc(C(F)(F)F)cc(C(F)(F)F)c1,112
Cc1nccn1CC1CCc2c(c3ccccc3n2C)C1=O.Cl (stereo not shown),110
CN1CCc2nc(C(=O)N[C@@H]3C[C@@H](C(=O)N(C)C)CC[C@@H]3NC(=O)C(=O)Nc3ccc(Cl)cn3)sc2C1.Cc1ccc(S(=O)(=O)O)cc1.O,114
CCCS(=O)(=O)Nc1ccc(F)c(C(=O)c2c[nH]c3ncc(-c4ccc(Cl)cc4)cc23)c1F,114
CS(=O)(=O)c1ccc(C(=O)Nc2ccc(Cl)c(-c3ccccn3)c2)c(Cl)c1,2.43
Cc1ccc(-n2nccn2)c(C(=O)N2CCN(c3nc4cc(Cl)ccc4o3)CC[C@H]2C)c1,106
CCC[C@H](NC(=O)[C@@H]1[C@H]2CCC[C@H]2CN1C(=O)[C@@H](NC(=O)[C@@H](NC(=O)c1cnccn1)C1CCCCC1)C(C)(C)C)C(=O)C(=O)NC1CC1,99.2

# Single results of other studies
Compound,target or system,assay,system,conditions,scale,measurement,value
O=C(NCCc1ccccc1)C(Oc1ccccc1P(=O)(O)O)c1ccccc1 (stereo not shown),human islet β-cells,β-cell death,human,"10 µM, 24 h, added: 20 mM glucose + 500 µM palmitate",reference: GFP+ cells,dead β-cells,51.3% and 30.5% and 34.4% and 61.1%
CC1=C(C#N)[C@@H](c2ccc3[nH]nc(C)c3c2)C(C#N)=C(c2ccc(Cl)cc2)N1,"CRK2 (Plasmodium falciparum, UniProt P61075)","cell-free assay, competition with immobilised ligand",,1 µM,,remaining binding,92.5%
O=C1CCC(N2Cc3c(ccc4c3OCC43CCN(Cc4ccccc4)CC3)C2=O)C(=O)N1 (stereo not shown),,,Caco-2,"10 µM, 2 h",,Papp A→B,18.7 ×10⁻⁶ cm/s
Cc1c(N2CCNCC2)nc2ccc(Br)cc2c1C(=O)NC[C@H](CCC(=O)O)c1ccccc1Cl,"HTR1D (Homo sapiens, UniProt P28221)",cell-free assay,,10 µM,,inhibition,9.12%
O=C1Nc2ccc3ncsc3c2/C1=C/c1cnc[nH]1,"NEK7 (Homo sapiens, UniProt Q8TDX7)","enzyme activity, inhibitor",,0.5 µM,,remaining activity,79.6%
CCCCN(CCCC)C(=O)CN1C[C@H](c2cc(OC)c3c(c2)OCO3)[C@@H](C(=O)O)[C@@H]1CC(C)(C)CCC,"CDPK1 (Plasmodium falciparum, UniProt P62344)","cell-free assay, competition with immobilised ligand",,1 µM,,remaining binding,82%
Cc1ncsc1-c1ccc(CNC(=O)[C@@H]2C[C@@H](O)CN2C(=O)[C@@H](NC(=O)CCCCCNC(=O)Cc2ccccc2)C(C)(C)C)cc1,,exponential regression of PRP log k',,,,"logD (1,9-decadiene/water)",-3.05

# For quick reference, copied from above (set 2):
Structure (SMILES),viability [%]
O=C(CC1CC1)N1CC(F)(F)C[C@H]1c1nc(-c2cccnc2)no1,96
O=C(CCc1ccco1)NCc1cccnc1-n1cnc2ccccc21,106
Cc1cc(C)cc(Oc2c(C)oc3c(CN4CCCCCC4)c(O)ccc3c2=O)c1,71
Cc1ccc(-c2cc(O)c3c(c2)CN(C(=O)Nc2ccccc2)CCO3)s1,102
CCS(=O)(=O)c1ncc(Cl)c(C(=O)Nc2nc3ccc(F)cc3s2)n1,82
CC(C)CS(=O)(=O)c1oc(-c2ccc(F)cc2)nc1S(=O)(=O)c1ccc(F)cc1,77
COc1ccccc1C(=O)c1sc(Nc2ccc(C(C)C)cc2)nc1N,74
O[C@H]1[C@H]2c3cc4c(cc3CN3CCC(=C[C@@H]1O)[C@H]23)OCO4,126
COc1cc(NC(=O)CN2C[C@@H](C)O[C@@H](C)C2)ccc1NC(=O)CC(C)C,70
